Experimental data of several laboratories.
Organism: Influenza A virus

`COC(=O)c1c(C)[nH]c2c3c(c(O)c(CN4CCOCC4)c12)[C@H]1C[C@@H]2[C@@]4(C)CCC[C@@](C)(C(=O)OC)[C@@H]4CC[C@@]32C=C1C(C)C` has an IC50 of 3.5 µM (viral replication; MDCK, A/Puerto Rico/8/34 (H1N1)).
`C=CC1=C(C)c2cc3nc(cc4[nH]c(cc5[nH]c(cc1n2)c(C)c5C=C)c(C)c4CCC(=O)OCCCCCCCCCCCCCC)C(CCC(=O)O)=C3C` gave an IC50 of 13.6 µM (viral replication; MDCK, H3N2).
With `CC1=CCC2C34CCC(O)(OC3)C(C)(C)C4CCC2(C)C12Cc1c(cc(-c3cccnc3)oc1=O)O2` (stereo not drawn) the IC50 was 6.61 µM (viral replication; H1N1).
The IC50 of `CC(C)C1=CC2=CC[C@@H]3[C@](C)(CCC[C@@]3(C)C(=O)OCC#CCN3CCOCC3)[C@H]2CC1` is reported as 33 µM (viral replication; MDCK, A/Puerto Rico/8/34 (H1N1)).
`OC[C@H]1O[C@@H](OCCc2ccccc2)[C@H](O)[C@@H](O)[C@@H]1O` has an IC50 of 12.5 µM (viral replication, inhibitor; H1N1 WSN; 24 h).
For `CC(C)C1=CC2=C(C=O)C[C@@H]3[C@](C)(CCC[C@@]3(C)C(=O)OCC#CCN3CCCC3)[C@H]2CC1`, the IC50 was 5 µM (viral replication; MDCK, A/Puerto Rico/8/34 (H1N1)).
With `Cc1ccc(COP(=O)(O)Oc2c3c(c(OP(=O)(O)OCc4ccc(C)cc4)c4c2C2CC4c4cc5c(cc42)C2CC5c4ccccc42)C2CC3c3cc4c(cc32)C2CC4c3ccccc32)cc1` the IC50 was 2.1 µM (viral replication; Caco-2).
The IC50 of `CC(C)C1=CC2=C(C=O)C[C@@H]3[C@](C)(CCC[C@@]3(C)C(=O)OCC#CCN3CCOCC3)[C@H]2CC1` is reported as 5.48 µM (viral replication; MDCK, A/Puerto Rico/8/34 (H1N1)).
`C=CC1=C(C)c2cc3nc(cc4[nH]c(cc5[nH]c(cc1n2)c(C)c5C=C)c(C)c4CCC(=O)OCc1ccccc1)C(CCC(=O)O)=C3C` gave an IC50 of over 29.8 µM (viral replication; MDCK, H3N2).
With `C=CCCCCOP(=O)(O)Oc1c2c(c(OP(=O)(O)OCCCCC=C)c3c1C1CC3c3cc4c(cc31)C1CC4c3ccccc31)C1CC2c2cc3c(cc21)C1CC3c2ccccc21` the IC50 was 16.7 µM (viral replication; Caco-2).
The IC50 of `CN(C)CCCC(=O)O[C@@H]1C[C@@H]2CC[C@@]1(C)C2(C)C` is reported as 97 µM (viral replication, inhibitor; MDCK, H1N1 PR8).
For `CC=CCCCCOP(=O)(O)Oc1c2c(c(OP(=O)(O)OCCCCC=CC)c3c1C1CC3c3cc4c(cc31)C1CC4c3ccccc31)C1CC2c2cc3c(cc21)C1CC3c2ccccc21`, the IC50 was 6.7 µM (viral replication; Caco-2).
The IC50 of `CC1=CCC2C(C)(CCC3(O)C24CCC(O)(OC4)C3(C)C)C12Oc1cc(-c3cccnc3)oc(=O)c1C2O` (stereo not drawn) is reported as 7.43 µM (viral replication; H1N1).
`COC(=O)[C@]1(C)CCC[C@]2(C)[C@H]3C[C@H]4C(C(C)C)=C[C@]3(CC[C@H]21)[C@H]1[C@@H]4[C@@H](OCC#CCN2CCCC2)CC[C@@H]1O` has an IC50 of 0.26 µM (viral replication; MDCK, A/Puerto Rico/8/34 (H1N1)).
The IC50 of `C[C@H](O)CC(=O)OCCc1ccc(O)cc1` is reported as 6.4 µM (viral replication, inhibitor; H1N1 WSN; 24 h).
`C=CC1=C(C)c2cc3nc(cc4[nH]c(cc5[nH]c(cc1n2)c(C)c5C=C)c(C)c4CCC(=O)OCCCCCCCCCCCCCCCCCC)C(CCC(=O)O)=C3C` has an IC50 of over 21.9 µM (viral replication; MDCK, H3N2).
`CO[C@@]12CC[C@]3(C(=O)O1)[C@H]1CC=C(C)[C@@]4(Cc5c(cc(-c6cccnc6)oc5=O)O4)[C@]1(C)CC[C@H]3C2(C)C` gave an IC50 of 7.24 µM (viral replication; H1N1).
The IC50 of `CC(C)=CCC[C@H](C)c1ccc(C)cc1` is reported as 18.4 µg/mL (cytopathic effect; MDCK, H1N1 PR/8; 72 h).
`CCCCCCOP(=O)(O)Oc1c2c(c(OP(=O)(O)OCCCCCC)c3c1C1CC3c3cc4c(cc31)C1CC4c3ccccc31)C1CC2c2cc3c(cc21)C1CC3c2ccccc21` gave an IC50 of 113 µM (viral replication; Caco-2).
For `C=CC1=C(C)c2cc3nc(cc4[nH]c(cc5[nH]c(cc1n2)c(C)c5C=C)c(C)c4CCC(=O)OCCCCCCCCCC)C(CCC(=O)O)=C3C`, the IC50 was 8.95 µM (viral replication; MDCK, H3N2).
`C#CCCCOP(=O)(O)Oc1c2c(c(OP(=O)(O)OCCCC#C)c3c1C1CC3c3cc4c(cc31)C1CC4c3ccccc31)C1CC2c2cc3c(cc21)C1CC3c2ccccc21` has an IC50 of 193 µM (viral replication; Caco-2).
`CC(C)C1=C[C@@]23CC[C@@H]4[C@](C)(CCC[C@@]4(C)C(=O)OCC#CCN4CCOCC4)[C@H]2C[C@@H]1[C@H]1C(=O)CCC(=O)[C@H]13` has an IC50 of 12.6 µM (viral replication; MDCK, A/Puerto Rico/8/34 (H1N1)).
With `CC12CCC(CC1=NCCO)C2(C)C` (stereo not drawn) the IC50 was 5.1 µM (viral replication, inhibitor; MDCK, H1N1).
`CC1=CCC[C@H](C)[C@@]12CC[C@@H](C(C)(C)O)C2` has an IC50 of 51.2 µg/mL (cytopathic effect; MDCK, H3N2; 72 h).
For `C=CC1=C(C)c2cc3nc(cc4[nH]c(cc5[nH]c(cc1n2)c(C)c5C=C)c(C)c4CCC(=O)OCc1ccc(-c2ccccc2)cc1)C(CCC(=O)O)=C3C`, the IC50 was over 26.8 µM (viral replication; MDCK, A/Puerto Rico/8/34 H1N1).
For `CC(C)C1=C[C@@]23CC[C@@H]4[C@](C)(CCC[C@@]4(C)C(=O)OCC#CCN4CCCC4)[C@H]2C[C@@H]1[C@H]1C(=O)OC(=O)[C@H]13`, the IC50 was 3 µM (viral replication; MDCK, A/Puerto Rico/8/34 (H1N1)).
`CC1=CC[C@@H]2[C@]34CC[C@](O)(OC3=O)C(C)(C)[C@@H]4CC[C@@]2(C)[C@@]12Oc1cc(-c3cccnc3)oc(=O)c1[C@@H]2O` has an IC50 of 4.48 µM (viral replication; H1N1).
The IC50 of `C#CCC(C)OP(=O)(O)Oc1c2c(c(OP(=O)(O)OC(C)CC#C)c3c1C1CC3c3cc4c(cc31)C1CC4c3ccccc31)C1CC2c2cc3c(cc21)C1CC3c2ccccc21` (stereo not drawn) is reported as 38.4 µM (viral replication; Caco-2).
`CC1=CC(O)C2C34CCC(O)(OC3)C(C)(C)C4CCC2(C)C12Oc1cc(-c3cccnc3)oc(=O)c1C2O` (stereo not drawn) has an IC50 of 19.9 µM (viral replication; H1N1).
With `O=P(O)(OCc1ccccc1)Oc1c2c(c(OP(=O)(O)OCc3ccccc3)c3c1C1CC3c3cc4c(cc31)C1CC4c3ccccc31)C1CC2c2cc3c(cc21)C1CC3c2ccccc21` the IC50 was 8 µM (viral replication; Caco-2).
For `CCN(CC)CCC(=O)O[C@@H]1C[C@@H]2CC[C@@]1(C)C2(C)C`, the IC50 was 36 µM (viral replication, inhibitor; MDCK, H1N1 PR8).
`O=P(O)(OCCCc1ccccc1)Oc1c2c(c(OP(=O)(O)OCCCc3ccccc3)c3c1C1CC3c3cc4c(cc31)C1CC4c3ccccc31)C1CC2c2cc3c(cc21)C1CC3c2ccccc21` has an IC50 of 3.8 µM (viral replication; Caco-2).
The IC50 of `CC(C)C1=C[C@@]23CC[C@@H]4[C@](C)(CCC[C@@]4(C)C(=O)NCC#CCN4CCCNCC4)[C@H]2C[C@@H]1[C@H]1C(=O)OC(=O)[C@H]13` is reported as 69.8 µM (viral replication; MDCK, A/Puerto Rico/8/34 (H1N1)).

Some of these lines once more:
`COC(=O)[C@]1(C)CCC[C@]2(C)[C@H]3C[C@H]4C(C(C)C)=C[C@]3(CC[C@H]21)[C@H]1[C@@H]4[C@@H](OCC#CCN2CCCC2)CC[C@@H]1O` has an IC50 of 0.26 µM (viral replication; MDCK, A/Puerto Rico/8/34 (H1N1)).
`OC[C@H]1O[C@@H](OCCc2ccccc2)[C@H](O)[C@@H](O)[C@@H]1O` has an IC50 of 12.5 µM (viral replication, inhibitor; H1N1 WSN; 24 h).
For `CC=CCCCCOP(=O)(O)Oc1c2c(c(OP(=O)(O)OCCCCC=CC)c3c1C1CC3c3cc4c(cc31)C1CC4c3ccccc31)C1CC2c2cc3c(cc21)C1CC3c2ccccc21`, the IC50 was 6.7 µM (viral replication; Caco-2).
